Results from different studies.
A part holds a random share of what one study measured. Changes are numbered by the printed parent chain.
UniProt Q9HAZ1, sequence (whole entry, looked up): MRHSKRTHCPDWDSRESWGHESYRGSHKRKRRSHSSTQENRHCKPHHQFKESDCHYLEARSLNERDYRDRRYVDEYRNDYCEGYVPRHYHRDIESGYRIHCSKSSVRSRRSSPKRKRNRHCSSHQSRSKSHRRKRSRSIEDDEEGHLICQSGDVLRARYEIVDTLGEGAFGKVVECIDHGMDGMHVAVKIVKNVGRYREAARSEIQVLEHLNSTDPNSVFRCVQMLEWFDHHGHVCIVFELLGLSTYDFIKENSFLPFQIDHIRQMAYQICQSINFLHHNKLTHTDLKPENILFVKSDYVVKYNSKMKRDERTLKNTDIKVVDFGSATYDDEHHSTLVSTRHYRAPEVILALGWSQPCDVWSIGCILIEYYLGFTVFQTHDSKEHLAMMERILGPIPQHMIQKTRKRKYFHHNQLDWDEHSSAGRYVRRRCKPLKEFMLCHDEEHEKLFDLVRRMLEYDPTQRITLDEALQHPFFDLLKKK
UniProt P50750, sequence (whole entry, looked up): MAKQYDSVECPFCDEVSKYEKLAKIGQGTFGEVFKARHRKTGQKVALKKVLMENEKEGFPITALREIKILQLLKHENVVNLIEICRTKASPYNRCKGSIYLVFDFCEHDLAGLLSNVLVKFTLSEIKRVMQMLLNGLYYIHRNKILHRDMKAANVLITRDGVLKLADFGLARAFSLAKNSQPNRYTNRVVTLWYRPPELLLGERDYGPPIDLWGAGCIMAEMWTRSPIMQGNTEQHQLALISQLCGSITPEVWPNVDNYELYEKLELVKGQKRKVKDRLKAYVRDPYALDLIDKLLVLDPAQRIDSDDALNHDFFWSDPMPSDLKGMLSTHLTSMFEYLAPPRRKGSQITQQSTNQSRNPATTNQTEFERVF
UniProt Q96Q40, sequence (whole entry, looked up): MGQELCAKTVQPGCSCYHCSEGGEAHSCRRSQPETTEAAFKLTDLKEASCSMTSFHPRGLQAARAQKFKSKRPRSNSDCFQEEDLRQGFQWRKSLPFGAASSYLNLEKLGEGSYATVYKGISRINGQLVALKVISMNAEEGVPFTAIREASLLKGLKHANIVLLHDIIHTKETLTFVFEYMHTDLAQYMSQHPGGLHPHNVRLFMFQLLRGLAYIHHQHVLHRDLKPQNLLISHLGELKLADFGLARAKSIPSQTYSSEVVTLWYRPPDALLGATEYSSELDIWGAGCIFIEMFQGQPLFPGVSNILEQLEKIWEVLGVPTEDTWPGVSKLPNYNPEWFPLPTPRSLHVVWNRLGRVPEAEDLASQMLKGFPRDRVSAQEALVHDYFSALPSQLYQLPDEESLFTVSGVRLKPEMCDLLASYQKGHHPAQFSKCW
UniProt P31751, sequence (whole entry, looked up): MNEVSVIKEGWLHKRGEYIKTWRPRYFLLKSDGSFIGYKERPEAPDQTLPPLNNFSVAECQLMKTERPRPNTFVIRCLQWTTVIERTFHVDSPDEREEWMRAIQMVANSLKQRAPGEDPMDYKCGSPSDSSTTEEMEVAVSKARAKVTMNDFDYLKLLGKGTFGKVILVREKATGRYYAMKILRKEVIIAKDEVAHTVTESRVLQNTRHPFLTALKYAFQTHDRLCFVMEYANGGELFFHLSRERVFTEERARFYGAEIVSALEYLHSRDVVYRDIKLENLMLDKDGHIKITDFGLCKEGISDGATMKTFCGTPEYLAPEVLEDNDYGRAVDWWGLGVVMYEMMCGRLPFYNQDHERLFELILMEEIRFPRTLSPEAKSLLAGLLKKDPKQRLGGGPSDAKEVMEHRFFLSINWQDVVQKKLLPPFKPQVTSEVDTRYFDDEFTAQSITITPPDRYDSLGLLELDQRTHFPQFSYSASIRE
UniProt P57078, sequence (whole entry, looked up): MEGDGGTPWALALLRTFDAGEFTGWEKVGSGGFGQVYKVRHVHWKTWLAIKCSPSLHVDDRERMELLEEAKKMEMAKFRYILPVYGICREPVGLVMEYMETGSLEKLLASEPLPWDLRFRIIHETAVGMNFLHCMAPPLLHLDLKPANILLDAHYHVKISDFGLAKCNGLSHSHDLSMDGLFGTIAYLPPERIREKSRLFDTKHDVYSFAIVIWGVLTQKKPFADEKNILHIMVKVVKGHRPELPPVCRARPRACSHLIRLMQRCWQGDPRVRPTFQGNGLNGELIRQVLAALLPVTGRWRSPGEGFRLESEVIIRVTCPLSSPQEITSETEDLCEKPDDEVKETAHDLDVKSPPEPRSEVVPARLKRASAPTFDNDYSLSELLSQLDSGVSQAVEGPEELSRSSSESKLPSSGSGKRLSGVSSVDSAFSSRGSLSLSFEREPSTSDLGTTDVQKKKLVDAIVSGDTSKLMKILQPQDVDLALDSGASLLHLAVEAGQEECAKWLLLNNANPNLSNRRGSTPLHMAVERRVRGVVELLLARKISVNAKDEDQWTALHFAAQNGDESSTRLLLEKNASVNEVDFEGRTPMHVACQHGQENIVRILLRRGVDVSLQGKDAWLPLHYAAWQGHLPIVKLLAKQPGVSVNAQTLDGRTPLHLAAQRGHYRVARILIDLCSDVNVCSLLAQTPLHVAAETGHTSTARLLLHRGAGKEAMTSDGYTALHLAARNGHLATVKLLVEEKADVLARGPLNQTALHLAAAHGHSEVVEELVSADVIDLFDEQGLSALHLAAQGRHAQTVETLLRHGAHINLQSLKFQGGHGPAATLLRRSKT
UniProt Q16832, sequence (whole entry, looked up): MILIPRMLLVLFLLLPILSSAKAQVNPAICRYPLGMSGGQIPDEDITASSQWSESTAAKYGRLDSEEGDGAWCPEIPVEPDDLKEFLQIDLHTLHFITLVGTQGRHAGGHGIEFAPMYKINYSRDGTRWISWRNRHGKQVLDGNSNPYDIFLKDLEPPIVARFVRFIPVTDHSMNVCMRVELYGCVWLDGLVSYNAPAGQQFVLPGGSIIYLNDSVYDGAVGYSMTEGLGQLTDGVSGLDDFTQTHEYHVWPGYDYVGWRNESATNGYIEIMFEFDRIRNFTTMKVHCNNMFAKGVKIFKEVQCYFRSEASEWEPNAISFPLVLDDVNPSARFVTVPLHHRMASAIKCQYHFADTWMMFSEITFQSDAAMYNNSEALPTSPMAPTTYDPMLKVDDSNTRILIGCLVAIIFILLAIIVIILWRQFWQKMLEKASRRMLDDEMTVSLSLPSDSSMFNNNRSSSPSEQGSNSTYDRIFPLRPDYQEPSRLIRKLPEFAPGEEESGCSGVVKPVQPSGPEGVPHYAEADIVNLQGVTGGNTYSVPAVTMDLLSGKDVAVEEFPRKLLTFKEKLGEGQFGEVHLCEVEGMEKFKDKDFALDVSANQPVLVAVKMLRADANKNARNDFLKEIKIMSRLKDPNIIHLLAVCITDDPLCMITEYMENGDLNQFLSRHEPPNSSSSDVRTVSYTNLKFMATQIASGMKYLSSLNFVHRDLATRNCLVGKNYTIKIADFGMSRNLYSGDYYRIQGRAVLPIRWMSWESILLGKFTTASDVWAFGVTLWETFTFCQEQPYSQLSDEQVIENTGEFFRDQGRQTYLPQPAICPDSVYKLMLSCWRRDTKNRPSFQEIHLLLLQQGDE
UniProt O75116, sequence (whole entry, looked up): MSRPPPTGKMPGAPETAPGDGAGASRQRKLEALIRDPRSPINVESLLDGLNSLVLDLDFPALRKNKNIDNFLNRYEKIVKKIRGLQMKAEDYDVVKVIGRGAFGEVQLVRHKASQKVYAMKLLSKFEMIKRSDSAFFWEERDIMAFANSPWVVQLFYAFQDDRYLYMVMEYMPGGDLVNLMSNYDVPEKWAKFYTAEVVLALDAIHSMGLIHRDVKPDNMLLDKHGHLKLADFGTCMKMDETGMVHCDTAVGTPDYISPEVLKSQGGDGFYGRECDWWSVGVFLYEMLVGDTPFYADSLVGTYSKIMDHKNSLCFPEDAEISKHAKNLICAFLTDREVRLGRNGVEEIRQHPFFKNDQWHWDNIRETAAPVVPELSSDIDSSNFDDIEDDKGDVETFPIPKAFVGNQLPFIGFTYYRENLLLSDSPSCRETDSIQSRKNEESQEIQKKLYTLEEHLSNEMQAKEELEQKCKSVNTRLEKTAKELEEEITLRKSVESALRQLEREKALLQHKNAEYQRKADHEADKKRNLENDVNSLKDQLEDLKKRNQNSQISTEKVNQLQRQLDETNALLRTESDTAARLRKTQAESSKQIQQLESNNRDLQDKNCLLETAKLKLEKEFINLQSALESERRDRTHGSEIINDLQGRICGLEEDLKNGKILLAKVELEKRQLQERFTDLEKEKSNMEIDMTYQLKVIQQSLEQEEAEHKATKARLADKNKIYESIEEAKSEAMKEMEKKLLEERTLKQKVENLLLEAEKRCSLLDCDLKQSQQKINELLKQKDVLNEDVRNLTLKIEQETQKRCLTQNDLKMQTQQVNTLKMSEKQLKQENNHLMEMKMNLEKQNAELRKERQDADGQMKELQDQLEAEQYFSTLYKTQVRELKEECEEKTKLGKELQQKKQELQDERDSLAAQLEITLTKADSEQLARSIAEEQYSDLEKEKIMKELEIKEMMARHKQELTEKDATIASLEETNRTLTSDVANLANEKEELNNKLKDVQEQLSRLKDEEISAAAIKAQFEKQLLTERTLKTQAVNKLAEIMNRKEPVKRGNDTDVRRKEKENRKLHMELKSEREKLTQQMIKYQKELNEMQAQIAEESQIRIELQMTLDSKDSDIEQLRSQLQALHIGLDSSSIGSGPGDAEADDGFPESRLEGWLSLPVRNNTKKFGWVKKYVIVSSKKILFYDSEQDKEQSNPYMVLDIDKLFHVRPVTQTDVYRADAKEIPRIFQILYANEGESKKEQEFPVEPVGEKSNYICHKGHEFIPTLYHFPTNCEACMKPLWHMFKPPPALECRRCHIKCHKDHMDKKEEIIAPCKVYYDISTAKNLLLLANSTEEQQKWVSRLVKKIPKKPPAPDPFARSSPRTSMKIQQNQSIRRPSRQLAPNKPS

Block 1
Structure (SMILES): O=C(Nc1ccc(Oc2ccc(F)cc2)cc1)N1CCc2ncccc2[C@H]1c1ccc(F)cc1
Read-out: cell-free assay
Method: competition with immobilised ligand
Tested at: 1 µM
Rho-associated protein kinase 2 (ROCK2, Homo sapiens, UniProt O75116) — remaining binding: 93%.
Calcium/calmodulin-dependent protein kinase type II subunit delta (CAMK2D, Homo sapiens, UniProt Q13557) — remaining binding: 89%.
For Receptor-type tyrosine-protein kinase FLT3 (FLT3, Homo sapiens, UniProt P36888, D835Y): remaining binding read 99%.
It gave 84% for remaining binding (Receptor-interacting serine/threonine-protein kinase 4 (RIPK4, Homo sapiens, UniProt P57078)).
It gave 86% for remaining binding (Cyclin-dependent kinase 15 (CDK15, Homo sapiens, UniProt Q96Q40)).
The remaining binding was 93% (ALK tyrosine kinase receptor (ALK, Homo sapiens, UniProt Q9UM73, C1156Y)).

Block 2
Cell line: HaCaT
Tested at: 100 µM
Time: 18 h
The viability of `CCN[C@@H]1C[C@H](N)[C@@H](O[C@H]2OC(CN)=CC[C@H]2N)[C@H](O)[C@H]1O[C@H]1OC[C@](C)(O)[C@H](NC)[C@H]1O` is reported as 112%.
`CC(C)(C)c1ccc(C(O)CCCN2CCC(C(O)(c3ccccc3)c3ccccc3)CC2)cc1` (centres unmarked) has a viability of 25.7%.
For `Nc1ncnc2c1ncn2[C@@H]1O[C@H](CO)[C@@H](O)[C@@H]1O`, the viability was 93.6%.
For `CC1(C)NC(=O)N(c2ccc([N+](=O)[O-])c(C(F)(F)F)c2)C1=O`, the viability was 93.9%.

Block 3
Compound: N#Cc1c(NC(=O)c2cccc3ccccc23)sc2c1CCCC2
Read-out: enzyme activity
Action: inhibitor
Tested at: 0.5 µM
Baseline: control
For Calcium/calmodulin-dependent protein kinase type 1B (PNCK, Homo sapiens, UniProt Q6P2M8): remaining activity read 104%.
The remaining activity was 105% (Serine/threonine-protein kinase MARK2 (MARK2, Homo sapiens, UniProt Q7KZI7)).
Mitogen-activated protein kinase 1 (MAPK1, Homo sapiens, UniProt P28482) — remaining activity: 87.5%.
The remaining activity was 104% (Mitogen-activated protein kinase 11 (MAPK11, Homo sapiens, UniProt Q15759)).
It gave 105% for remaining activity (RAC-beta serine/threonine-protein kinase (AKT2, Homo sapiens, UniProt P31751)).
For Cyclin-dependent kinase 9, with cyclin K (CDK9, Homo sapiens, UniProt P50750): remaining activity read 90.5%.
It gave 92% for remaining activity (Dual specificity protein kinase CLK4 (CLK4, Homo sapiens, UniProt Q9HAZ1)).
It gave 101% for remaining activity (MAP/microtubule affinity-regulating kinase 4 (MARK4, Homo sapiens, UniProt Q96L34)).
It gave 99.6% for remaining activity (Serine/threonine-protein kinase PLK3 (PLK3, Homo sapiens, UniProt Q9H4B4)).
For Serine/threonine-protein kinase MRCK beta (CDC42BPB, Homo sapiens, UniProt Q9Y5S2): remaining activity read 98%.
For Calcium/calmodulin-dependent protein kinase type IV (CAMK4, Homo sapiens, UniProt Q16566): remaining activity read 108%.
The remaining activity was 97% (Tyrosine-protein kinase TXK (TXK, Homo sapiens, UniProt P42681)).
It gave 95.8% for remaining activity (Discoidin domain-containing receptor 2 (DDR2, Homo sapiens, UniProt Q16832)).

Block 4
Target: CEP164, C-terminal peptide (human)
Method: DHFR complementation, deep sequencing
Medium: yeast
Notes: single substitutions, model-inferred values
Baseline: wild type
Reading: higher = weaker binding
Starting sequence: PDZK1, PDZ domain 2 (human); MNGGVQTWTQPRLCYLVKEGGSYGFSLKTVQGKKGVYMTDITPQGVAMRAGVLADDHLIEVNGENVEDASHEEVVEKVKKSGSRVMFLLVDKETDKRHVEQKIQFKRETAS; partner HNRVKVYRF
For `H57W`, “binding free energy change” read -0.0804 kcal/mol.
`E100K` — result for “binding free energy change”: -0.0921 kcal/mol.
For `I59Y`, “binding free energy change” read 0.261 kcal/mol.
`E76P`: “binding free energy change” 1.12 kcal/mol.
`G3R` — result for “binding free energy change”: -0.0817 kcal/mol.
For `G82V`, “binding free energy change” read 0.684 kcal/mol.
`V30M` — result for “binding free energy change”: 0.136 kcal/mol.
Under “binding free energy change”, `S111W` is recorded as 0.0157 kcal/mol.

Further values, each from its own experiment
`CC(C)n1cnc(-c2ccc(F)cc2)c1-c1ncc(C(=O)Nc2ccc(N3CCN(C)CC3)cc2)[nH]1` gave an Arrhythmia incidence of 0% (IPF patients; dose not given, all drug arms pooled).

Excerpt of the above (block 3):
For Calcium/calmodulin-dependent protein kinase type 1B (PNCK, Homo sapiens, UniProt Q6P2M8): remaining activity read 104%.
It gave 105% for remaining activity (RAC-beta serine/threonine-protein kinase (AKT2, Homo sapiens, UniProt P31751)).
The remaining activity was 104% (Mitogen-activated protein kinase 11 (MAPK11, Homo sapiens, UniProt Q15759)).
It gave 101% for remaining activity (MAP/microtubule affinity-regulating kinase 4 (MARK4, Homo sapiens, UniProt Q96L34)).
